Measured values gathered from unrelated publications.
Compare with care: the assays were run in different laboratories.

Structure (SMILES)	assay	system	conditions	measurement	value
Cn1cncc1-c1c(F)cncc1NC(=O)c1c(N)nn2cc(F)cnc12		human patients	oral, dose not given, all doses	patients grade ≥3 Hyperkalemia	2%
COc1ncnn2ccc(-c3cnc4nc(C)n(Cc5nnc([C@@H](C)F)o5)c4c3)c12		human	oral, dose not given, grade 3	patients with nail discoloration	0%
O=C1Nc2cc3[nH]nc(-c4ccncc4)c3cc2CN1Cc1ccccc1	CTCAE v4.03	human, relapsed or refractory advanced solid tumours	intravenous, 3.6 mg/kg, pooled schedules	patients with rash	0%
C[C@@H]1OC(=O)NN=C1c1ccc(-c2ccc(F)cc2)c(C(F)(F)F)c1	phase I trial, measured: non-cardiac chest pain all grades	human patients	20 mg loading then 1 mg daily	patients with adverse event	0%
CNC(=O)c1cc(Oc2ccc(NC(=O)Nc3cc(C(C)(C)C)nn3-c3ccc4ncccc4c3)c(F)c2)ccn1		human, trial	oral, dose not given, all doses	patients with related serious Death AE	2%
C=CC(=O)Nc1cc(Nc2nccc(Nc3cc(Cl)c(F)cc3C(C)(C)O)n2)c(OC)cc1N1CC[C@@H](N(C)C)C1		human patients	oral, 400 mg, treatment-emergent adverse events	patients with anaemia	55%
C[C@]1(O)C[C@@](N)(c2ccc(-c3nc4n(c3-c3ccccc3)COc3ccncc3-4)cc2)C1		human, advanced or metastatic solid tumours	intermittent, dose escalation total, any grade	patients with Anemia TEAE	0%
Cc1cn([C@H]2O[C@@H](CO[P@@](=O)(N[C@@H](C)C(=O)OC(C)C)Oc3ccccc3)[C@H](O)[C@H]2F)c(=O)[nH]c1=O	measured: grade 1/2	human	10 mg	patients with creatine kinase elevation	0%
CN(C)C(=O)c1cc2cnc(Nc3ccc(N4CCNCC4)cn3)nc2n1C1CCCC1	measured: Renal toxicity, AESI	human, HR+/HER2− advanced breast cancer	oral, dose not given, grade 3, CTCAE v4.03	patients with adverse event	0.3%
COc1ccc(-c2c(-c3ccc(C#N)c(F)c3)nc(N3CCC(N)CC3)n(C)c2=O)cc1F	measured: oxygen saturation decreased	human patients	oral, 60 mg, dose expansion	patients with serious TEAE	5%

Some of these lines once more:
Structure (SMILES)	assay	system	conditions	measurement	value
C=CC(=O)Nc1cc(Nc2nccc(Nc3cc(Cl)c(F)cc3C(C)(C)O)n2)c(OC)cc1N1CC[C@@H](N(C)C)C1		human patients	oral, 400 mg, treatment-emergent adverse events	patients with anaemia	55%
